Results collected from several papers.
Every numbered part comes from another study and shows a few of its results, in no order. Changes are numbered by the printed parent chain.

Study 1 — method: protein-binding microarray; form: double-stranded DNA, one strand shown; medium: in vitro; tested at: 2200 nM top; setting: 60-bp whole probe; with: salmon DNA 0.4 mg/ml; baseline: random background probes; direction: higher = stronger binding; shared flanks, not repeated: GCCTAGCAC … GTCTTGATTCGCTTGACGCTGCTG
Target: Interferon regulatory factor 7, full length, phosphomimetic (IRF7, Homo sapiens, UniProt Q92985, residues 1-503, S471D/S472D/S475D/S476D/S477D/S483D/S484D/S487D)
Construct (chain): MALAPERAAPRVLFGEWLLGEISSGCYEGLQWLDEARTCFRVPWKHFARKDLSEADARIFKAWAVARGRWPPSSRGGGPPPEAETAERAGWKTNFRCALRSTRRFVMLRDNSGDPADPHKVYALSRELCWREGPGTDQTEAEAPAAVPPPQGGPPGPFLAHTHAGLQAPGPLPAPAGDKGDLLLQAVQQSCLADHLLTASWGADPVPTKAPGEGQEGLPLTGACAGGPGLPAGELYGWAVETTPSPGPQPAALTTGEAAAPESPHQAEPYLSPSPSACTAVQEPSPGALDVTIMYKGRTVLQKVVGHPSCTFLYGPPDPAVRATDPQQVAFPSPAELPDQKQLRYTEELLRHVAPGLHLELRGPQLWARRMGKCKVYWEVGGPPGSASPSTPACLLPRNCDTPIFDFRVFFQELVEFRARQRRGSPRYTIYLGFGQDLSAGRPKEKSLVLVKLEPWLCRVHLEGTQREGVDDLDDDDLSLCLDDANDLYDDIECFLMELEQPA
For `GACAATATCGGGTTTCGAGACGTGCTA`, “fitted relative affinity” read 1.8 z-score.
`AGATTTTTATCAAATGTGGGAGTGCTA` — result for “fitted relative affinity”: -0.703 z-score.
Under “fitted relative affinity”, `TTAGGTATCGGTTTCGGTTAGTGCTAG` is recorded as 7.49 z-score.
`TTAGATTCCAGGTTCGATTAGTGCTAG` — result for “fitted relative affinity”: 1.23 z-score.
Under “fitted relative affinity”, `GACGATTTCAGTTTCAAGACGTGCTAG` is recorded as 2.58 z-score.
For `TTAGGTATCGGGTATCGGTGAGTGCTA`, “fitted relative affinity” read 0.255 z-score.
`GACGAACTGGGACTGGAGACGTGCTAG` — result for “fitted relative affinity”: -0.321 z-score.
`CTCCCTCTGTAAGTCAGCACGTGCTAG`: “fitted relative affinity” 1.05 z-score.

Study 2 — method: RNA Bind-n-Seq; form: RNA; medium: in vitro; tested at: not given; baseline: input RNA pool; direction: higher = stronger binding
Target: RING finger protein unkempt homolog, zinc fingers 1-6, GST-SBP tag (UNK, Homo sapiens, UniProt Q9C0B0, residues 30-357)
Sequence of UniProt Q9C0B0 (30-357, looked up): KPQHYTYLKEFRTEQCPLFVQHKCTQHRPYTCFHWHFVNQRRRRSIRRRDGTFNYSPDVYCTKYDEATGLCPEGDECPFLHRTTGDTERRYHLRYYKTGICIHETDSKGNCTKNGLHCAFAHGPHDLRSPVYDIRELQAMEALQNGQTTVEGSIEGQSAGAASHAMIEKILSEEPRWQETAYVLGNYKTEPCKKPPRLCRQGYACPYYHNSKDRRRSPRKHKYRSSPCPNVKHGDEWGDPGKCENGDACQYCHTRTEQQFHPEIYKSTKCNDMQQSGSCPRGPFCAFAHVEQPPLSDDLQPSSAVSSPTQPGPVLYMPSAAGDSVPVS
Setting: RNA with constant flanks, human and mouse sites, ends assumed
For `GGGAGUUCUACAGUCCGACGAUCGCAUUUGAAAGCUCAUGACAGAGCUAAAGAUCUGCCCCCCCUUCUCUCCCCUAUUUCUUUUAGGUGCCAUCUCAGUCUAAUCAUGGGUAUAAAUUCACCUUGGCCAGAGAAACUCACUAACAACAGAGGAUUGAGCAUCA`, the bound/input enrichment was 0.435 ratio.
The bound/input enrichment of `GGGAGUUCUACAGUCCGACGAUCAUCCAGUACUCGAAUCACAAAGAACUAAAGACAGAUAAUACAUUAAACCAACGUGCUCAGGCAGUUCUUCAAGCUGUGACAGCUGUCCAGACAGCAAAUACUCCUCUUAGUGGCACCACACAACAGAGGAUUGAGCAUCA` is reported as 0.287 ratio.
With `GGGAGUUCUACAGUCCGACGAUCGCAACAAGUGAAGAAGAAGCUAAAUUUGGUGCCAGACGUUUAGCCCGUAGUCUGCAGAAACUAGGUUUUCAGGUCAUCUUCACAGAUUUUAAGGUGGUGAAUGUUUUGGCAGUGUGUAACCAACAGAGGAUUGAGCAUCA` the bound/input enrichment was 0.562 ratio.
`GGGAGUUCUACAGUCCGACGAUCCCAGCUUCAGUUACGCUGUGUAAAGUUUCAAGAGAGUAAUGACAAGACUCAGCUUAUCUUUGGCUCUGUCACCAACAUACAUGCAAAAGAUGCAGCCCCAGUGGAGAAGAUACACACCAUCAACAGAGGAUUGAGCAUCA` gave a bound/input enrichment of 0.162 ratio.
For `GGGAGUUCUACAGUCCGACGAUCAAAGAAGAUAUUGCAAUGUGGGAAGUAAAUGAAGCCUUUAGUCUGGUUGUACUAGCAAACAUUAAAAUGUUGGAGAUUGAUCCCCAAAAAGUGAAUAUCAAUGGAGGAGCUGUUUCUCUGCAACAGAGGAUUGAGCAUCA`, the bound/input enrichment was 0.366 ratio.
`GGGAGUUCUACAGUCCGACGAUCAACAAAUACUGGCCCCUCUUUGUUCUAUUUUUUUACAUCCUUUCACCUAUUCCAUACUGCAUAGCAAGAAGAUUAGUGGAUGAUACAGAUGCUAUGAGUAACGCUUGUAAGGAACUUGCCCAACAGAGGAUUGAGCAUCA` has a bound/input enrichment of 0.426 ratio.
`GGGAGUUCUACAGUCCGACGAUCAACGCCAUGAAUUCCUUUGUUUAAUUUUUAAGCUCUUUGCCAAUAUUCCAUUUCUCUAGAAUGUUUAUCCUAAGCACUUGUUUGUCAGCCCUCUCAUACUAUGAACAUAUGGGUAGAGAGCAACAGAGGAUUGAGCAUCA` has a bound/input enrichment of 1.51 ratio.
The bound/input enrichment of `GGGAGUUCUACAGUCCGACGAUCGAGCCACCCGUUUUGCACUUCUCUCGCUUUUCUUCCUCCCUCUUUGGCUCCCAUUUCAAUGGACAGAAAGACUAUGUGGCAUCUCUAUUUUCAUUCACUUGGUUUAUUGUCUUGGUAUGUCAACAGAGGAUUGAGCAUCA` is reported as 0.353 ratio.

Study 3 — method: RNAcompete; form: RNA; medium: in vitro; tested at: 20 nM; setting: 7-mer, probes averaged, single round; baseline: mean of 7-mers; direction: higher = stronger binding
Target: PABPC1L2, full length, GST fusion (mouse, UniProt A0ABA7IW68)
Residues (chain): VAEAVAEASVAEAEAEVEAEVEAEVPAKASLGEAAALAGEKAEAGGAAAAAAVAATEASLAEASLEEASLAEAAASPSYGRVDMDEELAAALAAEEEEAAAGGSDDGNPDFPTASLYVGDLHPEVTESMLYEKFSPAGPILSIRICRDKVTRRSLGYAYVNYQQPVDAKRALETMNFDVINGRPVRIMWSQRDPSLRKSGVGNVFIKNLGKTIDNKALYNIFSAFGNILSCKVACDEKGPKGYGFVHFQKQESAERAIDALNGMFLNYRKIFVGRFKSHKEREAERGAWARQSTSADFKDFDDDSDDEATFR
The 7-mer Z-score of `CUGUUAA` is reported as -0.242.
The 7-mer Z-score of `AGACACA` is reported as -0.0174.
`CUGCAGA` has a 7-mer Z-score of -0.124.
`UUUCGUC` has a 7-mer Z-score of -0.612.
With `CAUUCCU` the 7-mer Z-score was -0.296.
`GGGGAUU` has a 7-mer Z-score of 0.289.
The 7-mer Z-score of `GGUGAUG` is reported as -0.0718.
With `AUACAGG` the 7-mer Z-score was 0.222.

Further values, each from its own experiment — starting sequence: viral docking peptide; TSVRRALFTGGSD
`V3P`: “normalised enrichment score” 0.625 (CCNE2, cyclin fold, Cln2 fusion (human); yeast growth competition, sequencing; yeast; strong parent motif; baseline: not given, higher = stronger binding).
